Measured values pooled from the literature.
Each numbered part is a random draw from the data of one study; scales do not carry over between parts. Positions count from the first letter of the parent shown.

Set 1 — target: CCNB2, cyclin fold, Cln2 fusion (human); technique: yeast growth competition, sequencing; matrix: yeast; notes: weak parent motif; baseline: not given; direction: higher = stronger binding
Starting sequence: CDC25A docking peptide (human); PPHRRRLLFACSP; partner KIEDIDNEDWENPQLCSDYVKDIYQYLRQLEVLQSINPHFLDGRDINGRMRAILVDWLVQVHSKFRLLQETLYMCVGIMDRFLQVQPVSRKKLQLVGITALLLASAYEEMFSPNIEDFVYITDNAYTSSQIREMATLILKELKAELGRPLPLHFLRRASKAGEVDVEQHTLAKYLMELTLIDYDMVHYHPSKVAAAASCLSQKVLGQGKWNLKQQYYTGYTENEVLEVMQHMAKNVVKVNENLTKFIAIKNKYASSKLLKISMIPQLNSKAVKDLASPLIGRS
`C11E`: “normalised enrichment score” 0.388.
Under “normalised enrichment score”, `A10S` is recorded as 0.321.
`L8D` — result for “normalised enrichment score”: 0.375.
For `P2M`, “normalised enrichment score” read 0.643.
`S12C`: “normalised enrichment score” 0.433.
`C11Y` — result for “normalised enrichment score”: 0.316.
For `A10K`, “normalised enrichment score” read 0.469.
`P1V` — result for “normalised enrichment score”: 0.361.
For `R4A`, “normalised enrichment score” read 0.705.
Under “normalised enrichment score”, `P13E` is recorded as 0.265.
Under “normalised enrichment score”, `R4V` is recorded as 0.658.
`F9V` — result for “normalised enrichment score”: 0.538.

Set 2 — technique: protein-binding microarray; form: double-stranded DNA, one strand shown; matrix: in vitro; concentration: 2540 nM top; notes: 60-bp whole probe; together with: salmon DNA 0.4 mg/ml; baseline: random background probes; direction: higher = stronger binding; all sequences stand within: GCCTAGCAC … GTCTTGATTCGCTTGACGCTGCTG
Target: Interferon regulatory factor 3, full length, phosphomimetic (IRF3, Homo sapiens, UniProt Q14653, residues 1-427, S386D/S396D/S398D/S402D/T404D/S405D)
UniProt Q14653, sequence (whole entry, unmodified, looked up): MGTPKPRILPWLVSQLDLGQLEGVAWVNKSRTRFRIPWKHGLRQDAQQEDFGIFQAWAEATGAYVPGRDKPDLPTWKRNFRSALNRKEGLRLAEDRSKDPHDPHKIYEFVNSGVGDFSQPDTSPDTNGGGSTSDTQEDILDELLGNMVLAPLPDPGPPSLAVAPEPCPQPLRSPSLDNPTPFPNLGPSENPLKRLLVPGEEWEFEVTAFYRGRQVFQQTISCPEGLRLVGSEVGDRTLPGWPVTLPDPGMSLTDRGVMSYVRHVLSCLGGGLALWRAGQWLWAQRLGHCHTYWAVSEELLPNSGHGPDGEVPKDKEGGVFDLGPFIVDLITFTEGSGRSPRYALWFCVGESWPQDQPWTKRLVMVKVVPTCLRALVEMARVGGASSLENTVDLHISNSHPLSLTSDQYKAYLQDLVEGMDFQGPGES
Under “fitted relative affinity”, `TCACCTATCTCCTCACAGACTGTGCTA` is recorded as 2.29 z-score.
Under “fitted relative affinity”, `TCAATTTTTAGTTAGAAACTGTGCTAG` is recorded as 0.309 z-score.
Under “fitted relative affinity”, `GAGAGTAGCTTTCTGAGGGCGTGCTAG` is recorded as -0.189 z-score.
`GACGGTTTCCTTCCCCTGACGTGCTAG` — result for “fitted relative affinity”: 5.99 z-score.
For `TTAGATATCAGTTTCGATTTGTGCTAG`, “fitted relative affinity” read 6.55 z-score.
Under “fitted relative affinity”, `GACGGTATCGGGTATCGGAACGTGCTA` is recorded as 2.74 z-score.
`TTAGGTTTGGGTATCGGTTAGTGCTAG`: “fitted relative affinity” 1.01 z-score.
Under “fitted relative affinity”, `TCATTTTTCTAAACCATACTGTGCTAG` is recorded as 2.25 z-score.
`TTAGATATCTGTTTCGATTAGTGCTAG`: “fitted relative affinity” 3.71 z-score.
Under “fitted relative affinity”, `TTAGGACTGGGAGTGGGTTAGTGCTAG` is recorded as -0.867 z-score.
Under “fitted relative affinity”, `GACGGACTCCTACTGCTGACGTGCTAG` is recorded as -0.0153 z-score.
Under “fitted relative affinity”, `TTACATTTCAGTTCCGATTAGTGCTAG` is recorded as 3.25 z-score.
`ATAGGTTTCGGACTGGGTTAGTGCTAG`: “fitted relative affinity” 4.63 z-score.
Under “fitted relative affinity”, `TTAGGACTGGGGTTTCGCTTAGTGCTA` is recorded as 0.654 z-score.

Set 3 — technique: RNA Bind-n-Seq; form: RNA; matrix: in vitro; concentration: 365 nM; baseline: no-protein control; direction: higher = stronger binding
Target: RNA binding protein fox-1 homolog 2, RRM domain, GST-SBP tag (RBFOX2, Homo sapiens, UniProt O43251-10, residues 100-194)
Notes: natural RNA segment, single round, ends assumed
All sequences stand within: GGGAGUUCUACAGUCCGACGAUC … UGGAAUUCUCGGGUGCCAA
Target sequence (chain): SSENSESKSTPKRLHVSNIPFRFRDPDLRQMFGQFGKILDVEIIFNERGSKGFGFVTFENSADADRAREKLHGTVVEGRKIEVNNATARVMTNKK
`CCCCGUGGAGCCUCAGUGCCCGUUUGGCCUGCUGCUCUCGCUGACAAUAAAGAGCCCUUGCGUUGCACUGAAGCCUGUGUUUGGUAUGAGGGUGCCAUCGGGAAGGGCGC` — result for “RBNS enrichment (R)”: 1.46.
Under “RBNS enrichment (R)”, `CCUCCAUCAUUUGGUUUCCUCUUGGCUUUGGGGAUACUUCUAAAUUUUGGGAGCUCCUCCAUCUCCAAUGGCUGGGAUUUGUGGCAGGGAUUCCACUCAGAACCUCUCUG` is recorded as 0.28.
`UCCCGACCCUGUCUCCGCCACCUCGCAGCCCCAUUAAAGCGCUCUCAUCUGGGCUCCGGUUCACUCACUCGCUGUGGCCGCGACUUGCUCUCUCCUUCUCGGGGUAAUUG`: “RBNS enrichment (R)” 0.393.
Under “RBNS enrichment (R)”, `CUUCUCUGCUUAUCCCCAGGCAGCAGAUGCUGAGCUUCCCCCACCUCCUGCAGACAGUGCUGCACAUCAUCCAGGUAGUCAUCAGCUACUUCCUCAUGCUCAUCUUCAUG` is recorded as 0.577.
`CUGUUGCUGUCUCUUGCUGGUGAAGCAAUACCAGCAGUUCCUGUAAUACCACAAUAUCGUUCCAUGCAUAUAUAACAUAUUAAUACUUGAUUUUGCUGAGCUGCAAAGGU`: “RBNS enrichment (R)” 1.06.
`ACUUCUCUUCCACAGUGGCCGGCCCACUCAAUCCCAGGGCCAUUGGCCUCACCCUCCCACCCCAUGUAAAUAUUACUCUGUCCUCUGGGGGGCGCUCUAGGGAGCCCCUU` — result for “RBNS enrichment (R)”: 0.403.
Under “RBNS enrichment (R)”, `CUGUGGAGUUUUAACAUUUUGUCCUCUUUUCAGUGAAACAGAGUAAAAAUAUUCAUCUACCAUUACUGUUAUUUGCUGAUUUUGUUUUAUUUUUUGAUGGUAAUAUUCUA` is recorded as 1.15.
`CUAGGAGCUUUAGAAGUCUUUAUGUUCUUCCUGCCAUCAUUCCUCCUUUUCCCACAGGGAAAGAAAAGUUGGAUCACUAGUGGCCAGCAUCCCCAGAGUUCCGUUAGUAA`: “RBNS enrichment (R)” 0.244.
`AAAGCAGAGGAACGGAAAGGGAAAGGGCCAGGUCAUCCUCAGCCACAUAGUGAGUCCAAGGUCGGCCUGGACUGCACGAGAGUCUGUCUAGGAAUGCAGUUAGUAAAAGC`: “RBNS enrichment (R)” 1.28.
`UGCCUUGGGCCUUGCUGCUGCUGCACCCAACUACUGAGCUGAGACCACUGAGUACCAGGGGCUGGGCUCCCUGAUGACACCCACCCUGUGCCAUCACCAUAACCUCUGGG`: “RBNS enrichment (R)” 0.724.
For `UCGCCCUCGUCCUACACCCUGGCUUCAGUGCAACUCUUUUCCUUCAGCUGCAUGUGAUUUUGUGAUAAAGUUCAGGUAACAGGAUGGGCAGUGAUGGAGAAUCACUGUUG`, “RBNS enrichment (R)” read 6.21.
For `UUUUAAGUGAGGAUAUCUACUGUCUGCUUCAUAGGGUGCUUUGCAAUAAAAUGAAAACGUAUUUAUACUGUUUUUACUAAGGUAACAAAAGCAUGAUAAUCCUUUUUUUU`, “RBNS enrichment (R)” read 0.937.

Further values, each from its own experiment
The fold induction of `PhoQ, residues 284 288 289 292 302 303 SLANKL` is reported as 12.8 (PhoP, residues 12 14 15 18 19 VQALL (Escherichia coli, UniProt P23836); Sort-seq, measured: YFP reporter; E. coli; PhoQ-PhoP variant library, together with: 10 µM Mg2+; baseline: high Mg2+ state, higher = stronger signaling).

Some of these lines once more (set 3):
`AAAGCAGAGGAACGGAAAGGGAAAGGGCCAGGUCAUCCUCAGCCACAUAGUGAGUCCAAGGUCGGCCUGGACUGCACGAGAGUCUGUCUAGGAAUGCAGUUAGUAAAAGC`: “RBNS enrichment (R)” 1.28.
`UGCCUUGGGCCUUGCUGCUGCUGCACCCAACUACUGAGCUGAGACCACUGAGUACCAGGGGCUGGGCUCCCUGAUGACACCCACCCUGUGCCAUCACCAUAACCUCUGGG`: “RBNS enrichment (R)” 0.724.
